# Published values gathered from unrelated publications.
# Numbered parts are unrelated; each lists some results of a single study.

# Set 1 — target: Sox-I, HMG box (Salpingoeca helianthica); technique: Spec-seq; form: double-stranded DNA, one strand shown; matrix: in vitro; tested at: not given; setting: whole probe, mean of replicates; baseline: not given; direction: lower = stronger binding
# Target sequence (chain): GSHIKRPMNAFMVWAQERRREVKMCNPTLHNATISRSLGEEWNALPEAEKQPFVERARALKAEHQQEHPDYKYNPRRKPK
Strand,relative binding energy [ln ratio]
GAGTCGTCTCGTCAGCACGAGTGTTCCGTAGAGCACTCAGGTC,0.523
GAGTCGTCTCGTCAGCACCATGCAGCCGTAGAGCACTCAGGTC,1.01
GAGTCGTCTCGTCAGCACCATCGAACCGTAGAGCACTCAGGTC,0.827
GAGTCGTCTCGTCAGCACGATCGTTCCGTAGAGCACTCAGGTC,0.992

# Set 2 — technique: RNA Bind-n-Seq; form: RNA; matrix: in vitro; tested at: 100 nM; baseline: input RNA pool; direction: higher = stronger binding
# Target: RING finger protein unkempt homolog, zinc fingers 1-6, SBP tag (UNK, Homo sapiens, UniProt Q9C0B0, residues 30-357)
# Chain of UniProt Q9C0B0 (30-357, looked up): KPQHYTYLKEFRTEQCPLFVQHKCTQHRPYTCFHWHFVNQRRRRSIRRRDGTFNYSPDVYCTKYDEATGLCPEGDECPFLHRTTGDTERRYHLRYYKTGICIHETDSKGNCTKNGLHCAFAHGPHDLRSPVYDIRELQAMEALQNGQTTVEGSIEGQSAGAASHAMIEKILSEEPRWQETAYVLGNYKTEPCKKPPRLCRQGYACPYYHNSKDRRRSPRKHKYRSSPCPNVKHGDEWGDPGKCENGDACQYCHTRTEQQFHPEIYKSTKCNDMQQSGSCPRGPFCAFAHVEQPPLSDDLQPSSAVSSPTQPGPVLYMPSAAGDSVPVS
# Setting: RNA with constant flanks, vertebrate orthologous sites, ends assumed
Strand,bound/input enrichment
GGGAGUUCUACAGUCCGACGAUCUUGGGAACAGCUCUCCAAAUAGGAGUAGUAGUAAAAAAAAUAAGCAAAAUGAUAUGUGUAUAGAAAAAACAGAAGUUAAAUCAUGUAAAGUAAAUGCUGCCAACCUUCCCGGCCCUAAAGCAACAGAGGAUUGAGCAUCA,0.865 ratio
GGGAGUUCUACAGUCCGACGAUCAUUCAAACCUGUGGUACCAUGGCCUCAUGUUGAAGGAAUAGAAGUGGACUUAGAGUCUAUUAGAAGAAAAAACAAGGACAAAAAUGAACAAGAGCGUCAUGCUGGAGGAGAUAACCAGAACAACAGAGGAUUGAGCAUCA,0.706 ratio
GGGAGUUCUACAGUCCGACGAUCUGACCAUACAUACAAAAUGUGCUUUGAGUCAUGAGUGUGAAUGAAACCAUAGCUUGAAAAGAAUUCACUUUUAGAACUAUACAACACAUAAGAACCCAUAAGCCAGAGGCCUGAGUUCUUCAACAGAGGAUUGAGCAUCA,0.402 ratio
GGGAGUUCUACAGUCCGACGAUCAUCCCAGUUUGUAUGCACAUUAUUCACAUUCCUAUCUGUUGUGUUUGCAGAAAUGACAUUUUUACCUUUUCUAAGGGUUACUUUUUGAUUUUCAUAUUAUUUGGUUGCAUGAAGUUGCCCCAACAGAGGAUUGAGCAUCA,0.3 ratio
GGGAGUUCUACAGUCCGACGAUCUCUAAACAACUUUAAAGAUGCUUCCUUCUAUGAUGCUUUAGCUCUUCACAUAUUUAAUCACAUUUAUGUAUCUUUUUUAUAUCAGCAGUGUCAAUUCAGAGGGAGCCAUUGGGUGAUUAGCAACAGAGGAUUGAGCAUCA,0.453 ratio

# Set 3 — technique: protein-binding microarray; form: double-stranded DNA, one strand shown; matrix: in vitro; tested at: 0.8 µM; setting: whole 60-bp probe, no competitor; direction: higher = stronger binding
# Target: Centromere-binding protein 1, full length, N-terminal tag (CBF1, Saccharomyces cerevisiae, UniProt P17106, residues 1-351)
# Chain of UniProt P17106 (whole entry, looked up): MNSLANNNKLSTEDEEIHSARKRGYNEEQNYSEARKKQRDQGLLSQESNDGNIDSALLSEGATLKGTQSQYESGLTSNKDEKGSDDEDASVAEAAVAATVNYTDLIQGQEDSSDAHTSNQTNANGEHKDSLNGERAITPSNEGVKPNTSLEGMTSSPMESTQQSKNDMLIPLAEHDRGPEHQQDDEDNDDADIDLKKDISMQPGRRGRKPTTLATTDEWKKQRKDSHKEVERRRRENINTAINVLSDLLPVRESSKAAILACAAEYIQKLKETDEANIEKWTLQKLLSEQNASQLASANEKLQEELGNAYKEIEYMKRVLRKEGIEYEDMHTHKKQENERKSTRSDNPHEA
Strand,fluorescence intensity [a.u.]
CCTAACTACTATACTCGTGTGCGATAGCTTCGTACAGTCTTGATTCGCTTGACGCTGCTG,593
GAAGGAAGAGTACAACACGCCATACAATGATCATAGGTCTTGATTCGCTTGACGCTGCTG,539
GAACACCACTCAGGGCACGAGAAAAGCTTATTTTAGGTCTTGATTCGCTTGACGCTGCTG,547
CTACTTCTTCATCGTGATGAGGTTGGCTATGATTTCGTCTTGATTCGCTTGACGCTGCTG,553

# Mixed results
Substance,target,test,system,conditions,how to read,quantity,result
"PhoQ, residues 284 288 289 292 302 303 GNNTDL","PhoP, residues 12 14 15 18 19 DLLYY (Escherichia coli, UniProt P23836)","Sort-seq, item: YFP reporter",E. coli,"PhoQ-PhoP variant library, added: 10 µM Mg2+","baseline: high Mg2+ state, higher = stronger signaling",fold induction,0.653

# For quick reference, copied from above (set 2):
Strand,bound/input enrichment
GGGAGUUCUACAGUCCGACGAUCUCUAAACAACUUUAAAGAUGCUUCCUUCUAUGAUGCUUUAGCUCUUCACAUAUUUAAUCACAUUUAUGUAUCUUUUUUAUAUCAGCAGUGUCAAUUCAGAGGGAGCCAUUGGGUGAUUAGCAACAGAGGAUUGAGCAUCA,0.453 ratio
